Results of several laboratories.
Numbered parts are unrelated; each lists some results of a single study.

Set 1
Target: Interferon regulatory factor 3, full length, phosphomimetic (IRF3, Homo sapiens, UniProt Q14653, residues 1-427, S386D/S396D/S398D/S402D/T404D/S405D)
Technique: protein-binding microarray
Form: double-stranded DNA, one strand shown
Medium: in vitro
Tested at: 2540 nM top
Notes: 60-bp whole probe
Added: salmon DNA 0.4 mg/ml
Relative to: random background probes
Direction: higher = stronger binding
Measurement: fitted relative affinity
Construct (chain): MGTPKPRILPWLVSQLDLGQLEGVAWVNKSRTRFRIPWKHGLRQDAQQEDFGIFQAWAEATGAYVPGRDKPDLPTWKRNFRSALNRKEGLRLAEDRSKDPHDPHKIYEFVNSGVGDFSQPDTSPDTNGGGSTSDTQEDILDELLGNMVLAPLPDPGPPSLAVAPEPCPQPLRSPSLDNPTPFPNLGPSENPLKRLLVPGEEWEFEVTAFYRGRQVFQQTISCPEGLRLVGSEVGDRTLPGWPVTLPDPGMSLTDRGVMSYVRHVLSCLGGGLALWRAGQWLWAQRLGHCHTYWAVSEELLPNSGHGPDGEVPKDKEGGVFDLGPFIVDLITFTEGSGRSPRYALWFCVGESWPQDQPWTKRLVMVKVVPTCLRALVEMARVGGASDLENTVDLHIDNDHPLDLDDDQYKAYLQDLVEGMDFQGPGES
GCCTAGCACGTTGGGGCGGGGCGGGGTGGGTGCTAGGTCTTGATTCGCTTGACGCTGCTG: 0.0755 z-score
GCCTAGCACGACGAACTGAGACGGGAGACGTGCTAGGTCTTGATTCGCTTGACGCTGCTG: -0.143 z-score
GCCTAGCACCTAATTTTCAATTCCTGAAAGTGCTAGGTCTTGATTCGCTTGACGCTGCTG: 2.19 z-score

Set 2
Target: Histone acetyltransferase KAT6A, winged helix 1, GST fusion (KAT6A, Homo sapiens, UniProt Q92794, residues 1-85)
Technique: protein binding microarray
Form: double-stranded DNA, one strand shown
Medium: in vitro
Tested at: not given
Notes: 8-mer, flanks averaged, mean of 2 arrays, mostly near background
Relative to: not given
Direction: higher = stronger binding
Measurement: E-score
Construct (chain): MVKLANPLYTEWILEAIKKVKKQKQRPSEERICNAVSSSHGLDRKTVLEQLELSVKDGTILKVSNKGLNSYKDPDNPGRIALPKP
GCGTGTCC: 0.221
GGACGGGA: 0.335
AAGCAACG: -0.0602

Set 3
Target: RNA binding protein fox-1 homolog 2, RRM domain, GST-SBP tag (RBFOX2, Homo sapiens, UniProt O43251-10, residues 100-194)
Technique: RNA Bind-n-Seq
Form: RNA
Medium: in vitro
Tested at: 365 nM
Notes: natural RNA segment, single round, ends assumed
Relative to: no-protein control
Direction: higher = stronger binding
Measurement: RBNS enrichment (R)
GGGAGUUCUACAGUCCGACGAUCGGGGUUGGAGGUGCUGGGCAAUGGAACUUCAAAUUCAAUGUCGCCCAGCAGUGAGGGGAGUCGGGAGGUGAGGCCUGUAGGCCAACCAAUUGGUGGAGUCUCAGCGAUAGUGGAAUUCUCGGGUGCCAA: 0.582
GGGAGUUCUACAGUCCGACGAUCACUACAUUAGUUUCCCUUUCUGAUUCUUAAUCUGUAGUUCUUUGUUAUAUUUCACAAAAAAAAAAAAUGUCUCGGUCACUACGCAAAGCUGCUAGUGGGGUUCUGUAUUUUGGAAUUCUCGGGUGCCAA: 0.647
GGGAGUUCUACAGUCCGACGAUCACCUGUGUAUAGAAGAAAGAAAGGGUCAGUGAUCGAGAAUCAGACACUCUCGUUCAGGAGGAGGCUUCUCGCCUGAAACAAUUGCACCCAACACUUUUGGGGAAGUCUCAUGGAAUUCUCGGGUGCCAA: 0.527

Other studies, line by line
PhoQ, residues 284 288 289 292 302 303 AGCYAI  fold induction (PhoP, residues 12 14 15 18 19 SPWRL (Escherichia coli, UniProt P23836); Sort-seq, measured: YFP reporter; E. coli; PhoQ-PhoP variant library, added: 10 µM Mg2+; relative to: high Mg2+ state, higher = stronger signaling): 1.25
